Published values of several laboratories.
Lines come from different studies, so protocols differ. Numbers after ± are the reported error.

Compound | test | system | conditions | tissue uptake
CCCC[C@H](NC(=O)CNC(=O)CNC(=O)[C@H](CCCCNC(=O)[C@H](CC(N)=O)NC(=O)C(C)c1ccc(CC(C)C)cc1)NC(=O)CN1CCN(CC(=O)O)CCN(CC(=O)O)CCN(CC(=O)O)CC1)C(=O)N[C@H]1CC(=O)NCCCC[C@@H](C(N)=O)NC(=O)[C@H](Cc2c[nH]c3ccccc23)NC(=O)[C@H](CCCNC(=N)N)NC(=O)[C@@H](Cc2ccccc2)NC(=O)[C@H](Cc2c[nH]cn2)NC1=O (some centres unmarked) [lutetium-177 labelled] | – | C57 mice, tumour-bearing, lung | 2 h | 1.44 ± 0.75 %ID/g
COc1ccc(Nc2nc(Nc3ccc(OCCOCCOCC[18F])cc3)ncc2Br)cc1 | – | ICR mice, S180 tumour, intestine | intravenous, 370 kBq, 60 min | 4.78 ± 0.02 %ID
CCCC[C@H](NC(=O)COCCOCCNC(=O)CN1CCN(CC(=O)O)CCN(CC(=O)O)CC1)C(=O)N[C@H]1CC(=O)NCCCC[C@@H](C(N)=O)NC(=O)[C@H](Cc2c[nH]c3ccccc23)NC(=O)[C@H](CCCNC(=N)N)NC(=O)[C@@H](Cc2ccccc2)NC(=O)[C@H](Cc2c[nH]cn2)NC1=O [fluorine-18 labelled] | – | C57 mice B16-F10 melanoma, muscle | intravenous, 0.37 MBq, 2 h | 0.21 ± 0.34 %ID/g
CCCC[C@H](NC(=O)CNC(=O)CNC(=O)[C@H](CCCCNC(=O)[C@H](CC(=O)O)NC(=O)C(C)c1ccc(CC(C)C)cc1)NC(=O)CN1CCN(CC(=O)O)CCN(CC(=O)O)CCN(CC(=O)O)CC1)C(=O)N[C@H]1CC(=O)NCCCC[C@@H](C(N)=O)NC(=O)[C@H](Cc2c[nH]c3ccccc23)NC(=O)[C@H](CCCNC(=N)N)NC(=O)[C@@H](Cc2ccccc2)NC(=O)[C@H](Cc2c[nH]cn2)NC1=O (some centres unmarked) [lutetium-177 labelled] | – | C57 mice, tumour-bearing, kidneys | intravenous, 0.037 MBq, 24 h | 7.38 ± 1.78 %ID/g
O=C([O-])CN1CCN(CC(=O)[O-])CCN(CC(=O)NC[C@H]2CC[C@H](C(=O)N[C@H](Cc3cnc4ccccc4c3)C(=O)NCCCC[C@H](NC(=O)N[C@@H](CCC(=O)O)C(=O)O)C(=O)O)CC2)CCN(CC(=O)[O-])CC1.[64Cu+2] | ex vivo gamma counting | 22Rv1 tumour-bearing mice, liver | intravenous, 0.74 MBq, 6 h post-injection | 25.2 %ID/g
O=C(NCC1OC2CCC=CCCC2O1)c1ccc(COCCOCCOCC[18F])cc1 (centres unmarked) | – | healthy female BALB/c nude mice, small intestine | intravenous, 7.4 MBq per mouse, 60 min | 7.8 ± 3.8 %ID/g
CC(C)C[C@H](NC(=O)[C@@H](CCCCNC(=O)[C@@H](Cc1ccccc1)NC(=O)CCCCCCCNC(=O)CN1CCN(CC(=O)O)CCN(CC(=O)O)CCN(CC(=O)O)CC1)NC(=O)[C@H](Cc1ccc(O)cc1)NC(=O)[C@H](CO)NC(=O)[C@H](Cc1c[nH]c2ccccc12)NC(=O)[C@H](Cc1c[nH]cn1)NC(=O)[C@@H]1CCC(=O)N1)C(=O)N[C@@H](CCCNC(=N)N)C(=O)N1CCC[C@H]1C(=O)NCC(N)=O [indium-111 labelled] | – | male athymic nude mice, DU-145 xenograft, tumour | intravenous, 1 h, together with: 10 µg unlabelled blocking peptide | 0.41 ± 0.23 %ID/g
Cc1cc(C)n(CCN(CCN)CCCCCCNC(=O)[C@@H](N)Cc2c[nH]cn2)n1.[99Tc+].[C-]#[O+].[C-]#[O+].[C-]#[O+] | – | BALB/c nude mice, MCF7 xenograft, intestine | intravenous, 15 min | 10.8 ± 1.05 %IA/g
CCCC[C@H](NC(=O)CCCCCCCNC(=O)CN1CCN(CC(=O)O)CCN(CC(=O)O)CC1)C(=O)N[C@H]1CC(=O)NCCCC[C@@H](C(N)=O)NC(=O)[C@H](Cc2c[nH]c3ccccc23)NC(=O)[C@H](CCCNC(=N)N)NC(=O)[C@@H](Cc2ccccc2)NC(=O)[C@H](Cc2c[nH]cn2)NC1=O [fluorine-18 labelled] | – | C57 mice B16-F10 melanoma, brain | intravenous, 0.37 MBq, 0.5 h | 0.12 ± 0.04 %ID/g
N#C[C@@H]1CCCN1C(=O)CNC(=O)c1ccnc2ccc(OCCCN3CCN(C(=O)CCc4ccc(O)c(CN5CCN6CC(=O)[O][Al-]([18F])([O]C(=O)C5)[O]c5ccc(CCC(=O)N7CCN(CCCOc8ccc9nccc(C(=O)NCC(=O)N%10CCC[C@H]%10C#N)c9c8)CC7)cc5C6)c4)CC3)cc12 (some centres unmarked) | – | BALB/c nude mice, U-87 MG xenograft, muscle | 1 h, blocking, together with: DOTA-FAPI-04 40 nmol/mouse co-injected | 1.55 ± 0.24 %ID/g
O=C([O-])CN1CCN(CC(=O)O)CCN(CC(=O)[O-])CCN(CC(=O)NCC2CCC(C(=O)NC(Cc3ccc4ccccc4c3)C(=O)NCCCCC(NC(=O)NC(CCC(=O)O)C(=O)O)C(=O)O)CC2)CC1.[212Pb+2] (centres unmarked) | – | athymic mice, C4-2 prostate cancer xenograft, spleen | intravenous, 2 h, 212Pb-labelled | not detected
N#C[C@@H]1CCCN1C(=O)CNC(=O)c1ccnc2ccc(OCCCN3CCN(C(=O)CCc4ccc5c(c4)CN4CCN6CC(=O)[O][68Ga-]([O]C(=O)C4)([O]5)[O]c4ccc(CCC(=O)N5CCN(CCCOc7ccc8nccc(C(=O)NCC(=O)N9CCC[C@H]9C#N)c8c7)CC5)cc4C6)CC3)cc12 | – | BALB/c nude mice, U-87 MG xenograft, blood | 1 h, blocking, together with: DOTA-FAPI-04 40 nmol/mouse co-injected | 1.1 ± 0.19 %ID/g
O=C(NCC1OC2CCC=CCCC2O1)c1ccc([18F])nc1 (centres unmarked) | – | healthy female BALB/c nude mice, bladder | intravenous, 7.4 MBq per mouse, 5 min | 3.8 ± 1.9 %ID/g
COc1ccc(Nc2nc(Nc3ccc(OCCOCC[18F])cc3)ncc2Br)cc1 | – | ICR mice, S180 tumour-bearing, tumor | intravenous, 370 kBq, 5 min | 3.59 ± 0.36 %ID/g
